{"data": "Experimental data collected from several papers", "note": "Every numbered part comes from another study and shows a few of its results, in no order."}
{"data": "Series 1", "target": "Histone acetyltransferase KAT6A, winged helix 1, GST fusion (KAT6A, Homo sapiens, UniProt Q92794, residues 1-85)", "method": "protein binding microarray", "molecule type": "double-stranded DNA, one strand shown", "sample": "in vitro", "tested at": "not given", "notes": "8-mer, flanks averaged, mean of 2 arrays, mostly near background", "baseline": "not given", "direction": "higher = stronger binding", "Target sequence (chain)": "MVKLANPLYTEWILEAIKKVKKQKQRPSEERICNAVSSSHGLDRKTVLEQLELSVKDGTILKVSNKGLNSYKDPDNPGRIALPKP"}
{"Oligonucleotide": "GCGTAACA", "E-score": 0.118}
{"Oligonucleotide": "AATCGGAA", "E-score": -0.0575}
{"Oligonucleotide": "CCGCATAA", "E-score": 0.213}
{"Oligonucleotide": "CGATCACG", "E-score": 0.26}
{"data": "Series 2", "target": "Centromere-binding protein 1, full length, His-tagged (CBF1, Saccharomyces cerevisiae, UniProt P17106, residues 1-351)", "method": "competition protein-binding microarray", "molecule type": "double-stranded DNA, one strand shown", "sample": "in vitro", "tested at": "2 µM", "notes": "whole 60-bp probe, lowest competitor level", "with": "Pho4 competitor, 0.05 µM", "direction": "higher = stronger binding", "sequence of UniProt P17106 (whole entry, looked up)": "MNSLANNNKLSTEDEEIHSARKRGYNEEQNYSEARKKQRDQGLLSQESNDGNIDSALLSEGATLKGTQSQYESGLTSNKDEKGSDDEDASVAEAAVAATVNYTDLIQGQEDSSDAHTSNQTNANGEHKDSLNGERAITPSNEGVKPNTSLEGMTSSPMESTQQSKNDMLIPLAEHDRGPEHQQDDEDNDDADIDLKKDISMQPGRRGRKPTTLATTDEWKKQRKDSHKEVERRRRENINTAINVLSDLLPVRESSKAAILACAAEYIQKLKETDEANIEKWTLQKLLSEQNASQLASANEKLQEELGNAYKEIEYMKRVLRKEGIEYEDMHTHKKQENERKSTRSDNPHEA"}
{"Oligonucleotide": "AGAAGAGACGCAGCAAGCGTGGGTAAATGATAATGAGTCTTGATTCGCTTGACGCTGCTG", "fluorescence intensity": "84.4 a.u."}
{"Oligonucleotide": "GGTGTCCATCCCCGTCACATGGTGCAGTACTTCCTTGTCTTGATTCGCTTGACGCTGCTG", "fluorescence intensity": "626 a.u."}
{"Oligonucleotide": "TTTATCATTCGTTAACTTTCAACTATCTGATTTTGAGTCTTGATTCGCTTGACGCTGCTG", "fluorescence intensity": "72.1 a.u."}
{"Oligonucleotide": "AAATTACTAAGTTGTGTCGTGGGTGACGCCGTATGAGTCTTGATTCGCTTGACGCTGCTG", "fluorescence intensity": "73.8 a.u."}
{"Oligonucleotide": "AAAGCGGTAATTTGGTTTGTGGGTGCAGATATCTATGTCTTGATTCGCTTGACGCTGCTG", "fluorescence intensity": "94 a.u."}
{"Oligonucleotide": "CGGGGTTAAGTTTGGGTCGTGGGTGGCTTGCAGCAGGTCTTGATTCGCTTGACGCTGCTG", "fluorescence intensity": "79.9 a.u."}
{"data": "Series 3", "target": "Fragile X messenger ribonucleoprotein 1, C-terminal low-complexity region (Fmr1, Mus musculus, UniProt P35922)", "method": "RNA Bind-n-Seq", "molecule type": "RNA", "sample": "in vitro", "tested at": "200 nM", "notes": "whole 134-nt RNA, ends assumed", "with": "150 mM KCl", "baseline": "input library", "direction": "higher = stronger binding"}
{"Oligonucleotide": "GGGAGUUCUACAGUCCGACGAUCUUUUUUGUAGUAGGGAGAUCCUUGAUCAUCAGGAUGGUAAUGUAGAAGAUGAUGGGCUUACAGGACUCCUAAGGCUUGCAACAAGUGUUGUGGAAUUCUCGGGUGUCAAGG", "log2 enrichment": 0.556}
{"Oligonucleotide": "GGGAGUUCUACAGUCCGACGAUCUGGCCCUGGUGGCAUGCGGGGAGGAAGAGGUGGCCUCAUGAAUCGUGGUGGUCCCGGUGGAAUGUUCAGAGGUGGCCGUGGUGGAGACAGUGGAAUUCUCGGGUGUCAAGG", "log2 enrichment": -0.0364}
{"Oligonucleotide": "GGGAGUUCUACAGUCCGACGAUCCAAGUCCUGUGCUACACAUCGUAUGUACCGAAUCGGUUUUUUUGGUUUGGUUUGGAAAGUAUUAUGUUACGCCGUUCGGAUCUGCACUUCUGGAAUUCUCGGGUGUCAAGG", "log2 enrichment": -0.761}
{"Oligonucleotide": "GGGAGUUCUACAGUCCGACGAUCUGGGAGGUGGAUUUUGUUUAUUUUUUUAGCUCAUUUCCAGGGGUGGUAAUUUUUUUUUAAUAUGUGUCAUGAAUAAAGUUGUUUUUGAAAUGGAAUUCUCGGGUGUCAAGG", "log2 enrichment": 0.497}
{"Oligonucleotide": "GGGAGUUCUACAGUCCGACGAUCAAGUCCUGUGCUACACAUCGUAUGUACCGAAUCGGGAAAAAGGGAAAAAGGGUGGGAAAGUAUUAUGUUACGCCGUUCGGAUCUGCACUUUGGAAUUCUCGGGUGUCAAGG", "log2 enrichment": 0.665}
{"data": "Other studies, line by line"}
{"Substance": "PhoQ, residues 284 288 289 292 302 303 SNSSNI", "target": "PhoP, residues 12 14 15 18 19 QQAYL (Escherichia coli, UniProt P23836)", "assay": "Sort-seq, refers to: YFP reporter", "test system": "E. coli", "conditions": "PhoQ-PhoP variant library, with: 10 µM Mg2+", "how to read": "baseline: high Mg2+ state, higher = stronger signaling", "measurement": "fold induction", "value": 1.33}
{"note": "Excerpt of the above (series 3):"}
{"Oligonucleotide": "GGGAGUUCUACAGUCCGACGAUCUGGGAGGUGGAUUUUGUUUAUUUUUUUAGCUCAUUUCCAGGGGUGGUAAUUUUUUUUUAAUAUGUGUCAUGAAUAAAGUUGUUUUUGAAAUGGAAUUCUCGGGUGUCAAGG", "log2 enrichment": 0.497}
